{"data": "Experimental data from different studies", "note": "A part holds a random share of what one study measured. “And” joins repeats or separate records; there may be more than shown.", "chain of UniProt Q8TBX8 (whole entry, looked up)": "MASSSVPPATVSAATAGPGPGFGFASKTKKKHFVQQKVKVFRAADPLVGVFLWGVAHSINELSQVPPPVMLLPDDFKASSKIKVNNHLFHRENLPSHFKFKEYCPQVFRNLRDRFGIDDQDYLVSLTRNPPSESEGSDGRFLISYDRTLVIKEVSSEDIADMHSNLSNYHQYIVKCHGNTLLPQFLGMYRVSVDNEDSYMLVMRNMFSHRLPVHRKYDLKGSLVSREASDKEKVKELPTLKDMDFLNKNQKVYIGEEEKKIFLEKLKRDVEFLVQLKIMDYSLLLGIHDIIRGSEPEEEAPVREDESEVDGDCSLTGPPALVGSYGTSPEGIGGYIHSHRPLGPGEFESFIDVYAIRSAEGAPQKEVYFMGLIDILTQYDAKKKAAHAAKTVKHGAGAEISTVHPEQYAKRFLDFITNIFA", "chain of UniProt Q14680 (whole entry, looked up)": "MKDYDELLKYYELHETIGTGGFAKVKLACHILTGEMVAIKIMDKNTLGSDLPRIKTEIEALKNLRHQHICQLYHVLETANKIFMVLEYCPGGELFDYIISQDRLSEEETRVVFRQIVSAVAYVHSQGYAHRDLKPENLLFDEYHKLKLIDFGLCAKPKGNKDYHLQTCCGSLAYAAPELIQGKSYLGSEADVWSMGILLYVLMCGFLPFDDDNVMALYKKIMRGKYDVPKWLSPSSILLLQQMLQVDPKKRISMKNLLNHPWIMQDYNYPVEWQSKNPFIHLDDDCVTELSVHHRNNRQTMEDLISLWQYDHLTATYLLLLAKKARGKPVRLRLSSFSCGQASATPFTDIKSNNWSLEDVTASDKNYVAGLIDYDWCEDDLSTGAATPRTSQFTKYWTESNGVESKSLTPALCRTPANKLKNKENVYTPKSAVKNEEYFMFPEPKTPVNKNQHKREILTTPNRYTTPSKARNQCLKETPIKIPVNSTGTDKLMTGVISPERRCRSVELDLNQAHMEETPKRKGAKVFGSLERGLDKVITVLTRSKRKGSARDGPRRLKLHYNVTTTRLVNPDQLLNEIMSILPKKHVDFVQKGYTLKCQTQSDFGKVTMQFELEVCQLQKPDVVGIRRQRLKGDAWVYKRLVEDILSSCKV", "chain of UniProt P29597 (whole entry, looked up)": "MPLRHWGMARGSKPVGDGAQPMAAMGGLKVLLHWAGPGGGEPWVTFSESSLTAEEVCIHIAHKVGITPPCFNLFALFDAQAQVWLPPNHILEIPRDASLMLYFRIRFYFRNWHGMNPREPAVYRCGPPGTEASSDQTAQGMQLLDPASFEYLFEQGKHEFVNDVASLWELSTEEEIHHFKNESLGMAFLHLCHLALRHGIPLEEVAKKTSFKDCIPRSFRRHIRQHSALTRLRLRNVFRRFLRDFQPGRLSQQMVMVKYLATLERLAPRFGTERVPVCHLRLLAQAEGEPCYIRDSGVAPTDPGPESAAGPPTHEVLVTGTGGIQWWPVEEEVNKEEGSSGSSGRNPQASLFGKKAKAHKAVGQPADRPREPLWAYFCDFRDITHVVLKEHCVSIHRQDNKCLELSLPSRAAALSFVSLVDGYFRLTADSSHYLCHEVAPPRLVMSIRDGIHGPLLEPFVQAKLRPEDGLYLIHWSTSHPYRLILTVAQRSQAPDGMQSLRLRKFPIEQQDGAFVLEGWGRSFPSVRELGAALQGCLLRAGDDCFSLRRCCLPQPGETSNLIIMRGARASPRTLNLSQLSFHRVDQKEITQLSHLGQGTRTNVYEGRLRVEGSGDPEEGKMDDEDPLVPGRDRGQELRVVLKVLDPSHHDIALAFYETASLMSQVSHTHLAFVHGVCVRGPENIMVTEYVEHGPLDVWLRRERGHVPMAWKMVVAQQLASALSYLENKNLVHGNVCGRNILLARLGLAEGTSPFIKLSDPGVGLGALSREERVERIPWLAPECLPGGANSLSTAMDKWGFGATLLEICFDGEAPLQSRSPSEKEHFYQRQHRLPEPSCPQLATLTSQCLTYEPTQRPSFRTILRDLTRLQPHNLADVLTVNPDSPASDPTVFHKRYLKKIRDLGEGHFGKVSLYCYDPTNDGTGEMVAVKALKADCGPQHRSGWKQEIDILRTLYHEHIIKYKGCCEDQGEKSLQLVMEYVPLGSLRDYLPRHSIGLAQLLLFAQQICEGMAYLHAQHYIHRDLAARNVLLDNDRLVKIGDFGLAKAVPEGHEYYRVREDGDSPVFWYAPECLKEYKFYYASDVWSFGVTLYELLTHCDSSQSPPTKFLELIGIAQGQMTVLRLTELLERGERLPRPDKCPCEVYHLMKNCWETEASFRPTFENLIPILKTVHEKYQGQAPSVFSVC", "chain of UniProt P19525 (whole entry, looked up)": "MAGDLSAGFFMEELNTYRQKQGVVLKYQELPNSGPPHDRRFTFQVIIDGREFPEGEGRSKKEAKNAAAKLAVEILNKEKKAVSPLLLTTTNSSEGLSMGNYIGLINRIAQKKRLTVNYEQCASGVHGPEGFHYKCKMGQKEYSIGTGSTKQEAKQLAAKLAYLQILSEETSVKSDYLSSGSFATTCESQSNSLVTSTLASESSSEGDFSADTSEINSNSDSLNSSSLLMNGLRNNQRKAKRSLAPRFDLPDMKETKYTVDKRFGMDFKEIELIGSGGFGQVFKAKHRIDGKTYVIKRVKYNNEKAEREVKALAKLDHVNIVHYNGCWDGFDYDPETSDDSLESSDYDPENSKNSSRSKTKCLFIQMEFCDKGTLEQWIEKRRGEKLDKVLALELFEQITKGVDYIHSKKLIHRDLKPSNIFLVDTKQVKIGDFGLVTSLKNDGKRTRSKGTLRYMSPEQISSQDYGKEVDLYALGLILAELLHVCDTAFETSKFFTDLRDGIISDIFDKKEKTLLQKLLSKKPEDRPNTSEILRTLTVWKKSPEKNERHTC"}
{"data": "Block 1", "target": "E3 ubiquitin-protein ligase NEDD4, HECT domain (Homo sapiens, UniProt P46934)", "read-out": "enzyme activity", "mode": "inhibitor", "technique": "Ub-TR-FRET", "matrix": "HECT domain", "concentration": "0.005081 µM", "reading": "higher = more chain formation", "Residues (P46934 938-1319, limits assumed)": "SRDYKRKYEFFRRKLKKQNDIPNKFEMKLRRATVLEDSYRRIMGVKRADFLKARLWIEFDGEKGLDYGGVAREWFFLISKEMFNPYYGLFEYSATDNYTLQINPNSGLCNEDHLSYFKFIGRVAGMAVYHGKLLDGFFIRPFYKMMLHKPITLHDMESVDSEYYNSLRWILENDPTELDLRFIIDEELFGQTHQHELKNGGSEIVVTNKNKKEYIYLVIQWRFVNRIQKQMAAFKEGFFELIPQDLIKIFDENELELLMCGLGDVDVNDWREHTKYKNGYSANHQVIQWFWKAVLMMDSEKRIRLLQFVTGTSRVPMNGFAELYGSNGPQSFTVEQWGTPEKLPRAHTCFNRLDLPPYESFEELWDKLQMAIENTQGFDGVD"}
{"SMILES": "CCOC(=O)/C=C/CNCCCCN1c2cc(Cl)ccc2CCc2cnn(C)c21.O=C(O)/C=C\\C(=O)O", "ubiquitin chain formation AUC": "68500 a.u. and 68800 a.u. and 83300 a.u. and 73300 a.u. and 69800 a.u. and 72200 a.u."}
{"SMILES": "Cl.NC(=O)/C=C/CNCCCN1c2ccccc2CCc2ccc(Cl)cc21", "ubiquitin chain formation AUC": "139000 a.u. and 137000 a.u. and 138000 a.u."}
{"SMILES": "CONC(=O)/C=C/CNCCCCN1c2ccccc2CCc2ccc(Cl)cc21.O=C(O)/C=C\\C(=O)O", "ubiquitin chain formation AUC": "38400 a.u. and 38800 a.u. and 63700 a.u. and 64000 a.u. and 39200 a.u."}
{"SMILES": "CCOC(=O)/C=C/CNCCCCN1c2cc(Cl)ccc2COc2ccccc21.O=C(O)/C=C\\C(=O)O", "ubiquitin chain formation AUC": "92500 a.u. and 93300 a.u. and 92100 a.u."}
{"SMILES": "CN(C)C(=O)/C=C/CNCCCN1c2ccccc2CCc2ccc(Cl)cc21.Cl", "ubiquitin chain formation AUC": "139000 a.u."}
{"SMILES": "COC(=O)CCCNCCCN1c2ccccc2CCc2ccc(Cl)cc21.COC(=O)CCCNCCCN1c2ccccc2CCc2ccc(Cl)cc21.O=C(O)/C=C/C(=O)O", "ubiquitin chain formation AUC": "131000 a.u. and 130000 a.u. and 129000 a.u."}
{"SMILES": "CCOC(=O)/C=C/CN(CC)CCCCN1c2ccccc2CCc2ccc(Cl)cc21.O=C(O)/C=C\\C(=O)O", "ubiquitin chain formation AUC": "102000 a.u. and 103000 a.u. and 92100 a.u. and 94100 a.u. and 92800 a.u."}
{"SMILES": "CCOC(=O)/C=C/CNCCCN1c2ccccc2CCc2ccc(Cl)cc21", "ubiquitin chain formation AUC": "42900 a.u. and 43300 a.u. and 44400 a.u."}
{"data": "Block 2", "SMILES": "C[C@@H]1CN(c2ccc(-c3cc(C(=O)NCCOCCOCCOCCOCCNC(=O)Cn4cc(-c5[nH]cc(C(=O)N[C@@H](CC(N)=O)c6ccc(F)c(Cl)c6)c5-c5ccc(Cl)cc5F)cn4)ccc3F)cc2NC(=O)c2c[nH]c(=O)cc2C(F)(F)F)C[C@H](C)N1C", "read-out": "thermal unfolding", "technique": "differential scanning fluorimetry", "concentration": "5.5 µM", "reading": "higher = more unfolded", "WDR5": "WD repeat-containing protein 5 (WDR5, Homo sapiens, UniProt P61964)", "DCAF1": "DDB1- and CUL4-associated factor 1 (DCAF1, Homo sapiens, UniProt Q9Y4B6)", "chain of UniProt Q9Y4B6 (whole entry, looked up)": "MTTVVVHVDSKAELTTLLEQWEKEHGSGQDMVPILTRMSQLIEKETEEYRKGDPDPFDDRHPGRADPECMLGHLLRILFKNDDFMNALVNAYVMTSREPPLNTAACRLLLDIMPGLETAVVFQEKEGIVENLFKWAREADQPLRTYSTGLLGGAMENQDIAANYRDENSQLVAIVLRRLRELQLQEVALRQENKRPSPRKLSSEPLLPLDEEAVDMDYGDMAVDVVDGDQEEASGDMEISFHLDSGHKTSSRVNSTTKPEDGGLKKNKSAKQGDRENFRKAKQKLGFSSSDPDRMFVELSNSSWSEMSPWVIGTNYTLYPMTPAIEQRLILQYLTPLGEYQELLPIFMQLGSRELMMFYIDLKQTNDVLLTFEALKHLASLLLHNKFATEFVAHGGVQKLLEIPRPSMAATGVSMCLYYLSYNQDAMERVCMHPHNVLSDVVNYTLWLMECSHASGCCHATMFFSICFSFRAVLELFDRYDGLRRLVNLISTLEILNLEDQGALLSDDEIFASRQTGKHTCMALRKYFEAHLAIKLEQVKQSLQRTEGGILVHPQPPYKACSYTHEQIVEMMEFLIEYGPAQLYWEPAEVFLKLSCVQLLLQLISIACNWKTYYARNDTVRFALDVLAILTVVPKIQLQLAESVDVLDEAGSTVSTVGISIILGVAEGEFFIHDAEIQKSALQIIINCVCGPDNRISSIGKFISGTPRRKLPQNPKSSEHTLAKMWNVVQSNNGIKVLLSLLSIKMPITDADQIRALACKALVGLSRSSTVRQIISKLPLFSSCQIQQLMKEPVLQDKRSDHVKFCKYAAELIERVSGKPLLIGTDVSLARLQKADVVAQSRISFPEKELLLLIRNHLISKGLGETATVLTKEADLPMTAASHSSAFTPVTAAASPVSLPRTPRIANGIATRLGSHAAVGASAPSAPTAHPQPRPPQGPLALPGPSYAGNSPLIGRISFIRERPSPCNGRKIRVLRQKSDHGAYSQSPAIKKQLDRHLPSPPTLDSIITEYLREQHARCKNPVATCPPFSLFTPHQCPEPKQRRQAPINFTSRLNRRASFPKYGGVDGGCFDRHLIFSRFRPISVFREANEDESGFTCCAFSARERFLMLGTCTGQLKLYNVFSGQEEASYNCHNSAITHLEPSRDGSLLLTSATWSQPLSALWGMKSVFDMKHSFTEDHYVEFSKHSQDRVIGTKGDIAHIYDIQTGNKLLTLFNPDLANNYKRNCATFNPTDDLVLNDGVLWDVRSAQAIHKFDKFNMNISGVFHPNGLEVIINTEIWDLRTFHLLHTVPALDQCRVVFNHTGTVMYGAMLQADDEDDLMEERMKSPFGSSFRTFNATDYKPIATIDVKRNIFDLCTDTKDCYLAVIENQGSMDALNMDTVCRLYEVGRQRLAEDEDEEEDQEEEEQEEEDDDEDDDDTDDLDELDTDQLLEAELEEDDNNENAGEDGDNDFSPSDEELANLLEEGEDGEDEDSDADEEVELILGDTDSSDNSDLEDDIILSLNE"}
{"target": "WDR5", "setting": "87.21 °C", "SYPRO Orange fluorescence [a.u.]": 43100}
{"target": "WDR5", "setting": "33.8 °C", "SYPRO Orange fluorescence [a.u.]": 14400}
{"target": "WDR5", "setting": "41 °C", "SYPRO Orange fluorescence [a.u.]": 14200}
{"target": "DCAF1", "setting": "36.4 °C", "SYPRO Orange fluorescence [a.u.]": 9300}
{"target": "WDR5", "setting": "85.81 °C", "SYPRO Orange fluorescence [a.u.]": 41100}
{"target": "WDR5", "setting": "63.81 °C", "SYPRO Orange fluorescence [a.u.]": 8290}
{"target": "WDR5", "setting": "66.41 °C", "SYPRO Orange fluorescence [a.u.]": 7190}
{"target": "WDR5", "setting": "45.2 °C", "SYPRO Orange fluorescence [a.u.]": 14300}
{"target": "WDR5", "setting": "58.21 °C", "SYPRO Orange fluorescence [a.u.]": 11700}
{"target": "WDR5", "setting": "40.8 °C", "SYPRO Orange fluorescence [a.u.]": 14200}
{"target": "DCAF1", "setting": "35.4 °C", "SYPRO Orange fluorescence [a.u.]": 8960}
{"data": "Block 3", "Structure (SMILES)": "COc1cc(-c2nc3ccc(C(=O)NCCCN(C)C)cc3n2C2CCC2)cc(OC)c1OC", "read-out": "binding", "technique": "competition with immobilised ligand", "concentration": "1 µM"}
{"target": "Serine/threonine-protein kinase D2 (PRKD2, Homo sapiens, UniProt Q9BZL6)", "remaining binding": "99%"}
{"target": "Serine/threonine-protein kinase PLK3 (PLK3, Homo sapiens, UniProt Q9H4B4)", "remaining binding": "99%"}
{"target": "Mast/stem cell growth factor receptor Kit, autoinhibited (KIT, Homo sapiens, UniProt P10721)", "remaining binding": "81%"}
{"target": "Casein kinase II subunit alpha (CSNK2A1, Homo sapiens, UniProt P68400)", "remaining binding": "100%"}
{"target": "Serine/threonine-protein kinase mTOR (MTOR, Homo sapiens, UniProt P42345)", "remaining binding": "100%"}
{"target": "Serine/threonine-protein kinase 16 (STK16, Homo sapiens, UniProt O75716)", "remaining binding": "100%"}
{"target": "Ribosomal protein S6 kinase alpha-4, C-terminal kinase domain (RPS6KA4, Homo sapiens, UniProt O75676)", "remaining binding": "99%"}
{"target": "Atypical kinase COQ8A, mitochondrial (COQ8A, Homo sapiens, UniProt Q8NI60)", "remaining binding": "88%"}
{"target": "Non-receptor tyrosine-protein kinase TYK2, JH2 (TYK2, Homo sapiens, UniProt P29597)", "remaining binding": "83%"}
{"target": "Focal adhesion kinase 1 (PTK2, Homo sapiens, UniProt Q05397)", "remaining binding": "100%"}
{"target": "Phosphatidylinositol 5-phosphate 4-kinase type-2 gamma (PIP4K2C, Homo sapiens, UniProt Q8TBX8)", "remaining binding": "100%"}
{"target": "Maternal embryonic leucine zipper kinase (MELK, Homo sapiens, UniProt Q14680)", "remaining binding": "84%"}
{"target": "Interferon-induced, double-stranded RNA-activated protein kinase (EIF2AK2, Homo sapiens, UniProt P19525)", "remaining binding": "92%"}
{"target": "Serine/threonine-protein kinase Sgk1 (SGK1, Homo sapiens, UniProt O00141)", "remaining binding": "44%"}
{"target": "Phosphatidylinositol 5-phosphate 4-kinase type-2 beta (PIP4K2B, Homo sapiens, UniProt P78356)", "remaining binding": "100%"}
{"target": "Protein-tyrosine kinase 6 (PTK6, Homo sapiens, UniProt Q13882)", "remaining binding": "80%"}
{"target": "Activin receptor type-2B (ACVR2B, Homo sapiens, UniProt Q13705)", "remaining binding": "100%"}
{"target": "Proto-oncogene tyrosine-protein kinase ROS (ROS1, Homo sapiens, UniProt P08922)", "remaining binding": "88%"}
{"target": "Tyrosine-protein kinase JAK2, JH1 (JAK2, Homo sapiens, UniProt O60674)", "remaining binding": "100%"}
{"target": "Fibroblast growth factor receptor 2 (FGFR2, Homo sapiens, UniProt P21802)", "remaining binding": "90%"}
{"target": "Epidermal growth factor receptor (EGFR, Homo sapiens, UniProt P00533, del746-750)", "remaining binding": "99%"}
{"target": "Dual specificity protein kinase CLK2 (CLK2, Homo sapiens, UniProt P49760)", "remaining binding": "83%"}
{"data": "Block 4", "Structure (SMILES)": "Cc1ccc(O)c(C)c1-c1cnc2[nH]c(-c3cnc(N4CCC5(CC4)CC(N4CCN(c6ccc(N[C@H]7CCC(=O)NC7=O)cc6F)CC4)CO5)nc3)cc2c1C#N (single isomer, unassigned)", "PKMYT1": "Membrane-associated tyrosine- and threonine-specific cdc2-inhibitory kinase (PKMYT1, Homo sapiens, UniProt Q99640)", "chain of UniProt Q99640 (whole entry, looked up)": "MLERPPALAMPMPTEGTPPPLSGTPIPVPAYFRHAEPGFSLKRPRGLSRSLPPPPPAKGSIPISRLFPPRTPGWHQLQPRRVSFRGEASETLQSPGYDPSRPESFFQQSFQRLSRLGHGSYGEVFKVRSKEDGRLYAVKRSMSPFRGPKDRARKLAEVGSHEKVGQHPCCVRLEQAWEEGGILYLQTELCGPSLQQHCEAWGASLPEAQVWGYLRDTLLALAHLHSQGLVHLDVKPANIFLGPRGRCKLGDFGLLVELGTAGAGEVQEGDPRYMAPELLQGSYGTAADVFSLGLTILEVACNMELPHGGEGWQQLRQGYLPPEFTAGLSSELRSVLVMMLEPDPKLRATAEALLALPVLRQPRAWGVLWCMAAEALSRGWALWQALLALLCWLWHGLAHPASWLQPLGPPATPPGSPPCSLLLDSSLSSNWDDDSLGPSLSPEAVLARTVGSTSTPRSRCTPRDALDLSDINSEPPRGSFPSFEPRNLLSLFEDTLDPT"}
{"target or system": "PKMYT1", "test": "degrader, automated immunoblot (Jess)", "test system": "HCC1569", "setting": "1 nM, 4 h", "degradation": "41.2%"}
{"target or system": "PKMYT1", "test": "degrader, automated immunoblot (Jess)", "test system": "HCC1569", "setting": "1000 nM, 24 h", "degradation": "77.5%"}
{"test": "automated immunoblotting, measured: PKMYT1", "test system": "mouse, HCC1569 xenograft, tumour", "setting": "dose not given, 144 h", "degradation": "72.1% and 60.2% and 64.7% and 68.9% and 75.3% and 70.4%"}
{"target or system": "PKMYT1", "test": "degrader, automated immunoblot (Jess)", "test system": "HCC1569", "setting": "0.15 nM, 24 h", "degradation": "13.8%"}
{"target or system": "PKMYT1", "test": "degrader, automated immunoblot", "test system": "HCC1569", "setting": "10 nM", "degradation": "78.3% and 79.1% and 79%"}
{"target or system": "PKMYT1", "test": "degrader, automated immunoblot (Jess)", "setting": "0.02 nM, 24 h", "degradation": "-5.14% and -11.1%"}
{"target or system": "PKMYT1", "test": "degrader, automated immunoblot (Jess)", "test system": "HCC1569", "setting": "100 nM, 24 h", "degradation": "93.8%"}
{"target or system": "PKMYT1", "test": "degrader, automated immunoblot (Jess)", "test system": "HCC1569", "setting": "100 nM, 8 h", "degradation": "92.9%"}
{"target or system": "PKMYT1", "test": "degrader, automated immunoblot (Jess)", "setting": "4.12 nM, 24 h", "degradation": "81.5% and 81.4%"}
{"data": "Further values, each from its own experiment", "KRAS G12D GDP-bound": "GTPase KRas, GDP-bound (KRAS, Homo sapiens, UniProt P01116, G12D)"}
{"Structure (SMILES)": "Cc1ncsc1-c1ccc(C(CO)NC(=O)C2CC(O)CN2C(=O)C(C(C)C)n2cc(-c3ccc(COc4c(-c5c(C)c(F)cc6[nH]ncc56)c(C5CC5)cc5c(N6CC7CC6CN7)nc(OC6CCOCC6)nc45)cc3)nn2)cc1 (stereo not drawn)", "target or system": "AsPC-1", "test": "in-cell ELISA, measured: phospho-ERK1/2", "setting": "10 nM", "endpoint": "ERK1/2 phosphorylation", "value": "62.2% and 52.3% and 56.9%"}
{"Structure (SMILES)": "Cc1ncsc1-c1ccc(C2(NC(=O)C3CC(O)CN3C(=O)C(NC(=O)c3ccc(COc4c(-c5c(C)c(F)cc6[nH]ncc56)c(C5CC5)cc5c(N6CC7CC6CN7)nc(OC6CCOCC6)nc45)cc3)C(C)C)CC2)cc1 (stereo not drawn)", "target or system": "KRAS G12D GDP-bound", "test": "SPR, single-cycle", "test system": "immobilized KRAS G12D", "setting": "binary", "endpoint": "kon", "value": "157000 M⁻¹ s⁻¹ and 212000 M⁻¹ s⁻¹"}
{"Structure (SMILES)": "Cc1ncsc1-c1ccc(C(CO)NC(=O)C2CC(O)CN2C(=O)C(NC(=O)c2ccc(COc3c(-c4c(C)c(F)cc5[nH]ncc45)c(C4CC4)cc4c(N5CC6CC5CN6)nc(OC5CCOCC5)nc34)cc2)C(C)C)cc1 (stereo not drawn)", "target or system": "KRAS G12D GDP-bound", "test": "binder, multi-cycle SPR", "setting": "binary, without VCB", "endpoint": "dissociation rate constant (kd)", "value": "0.00715 s⁻¹ and 0.00605 s⁻¹ and 0.00466 s⁻¹ and 0.00632 s⁻¹ and 0.00804 s⁻¹"}
{"Structure (SMILES)": "Cc1ncsc1-c1ccc(C2(NC(=O)C3CC(O)CN3C(=O)C(NC(=O)c3ccc(COc4c(-c5c(C)c(F)cc6[nH]ncc56)c(C5CC5)cc5c(N6CC7CC6CN7)nc(OC6CCOCC6)nc45)cc3)C(C)(C)C)CC2)cc1 (stereo not drawn)", "target or system": "AsPC-1", "test": "in-cell ELISA", "setting": "3 nM, individual replicates", "endpoint": "phospho-ERK1/2 level", "value": "98.8% and 93.3% and 97.8% and 86.5% and 102%"}
